Measured values of several laboratories.
A part holds a random share of what one study measured. Substitutions count along the parent as printed.

Set 1 — method: RNA Bind-n-Seq; molecule type: RNA; matrix: in vitro; tested at: 200 nM; notes: whole 134-nt RNA, ends assumed; together with: 150 mM LiCl; baseline: input library; direction: higher = stronger binding; library: 7-deaza-guanosine replaces G
Target: Fragile X messenger ribonucleoprotein 1, C-terminal low-complexity region (Fmr1, Mus musculus, UniProt P35922)
With `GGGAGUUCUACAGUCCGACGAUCUUCCUCAAGUCCUGUGCUACACAUCGUAUGUACCGAAUCGGAGGAGGAGGGAAAGUAUUAUGUUACGCCGUUCGGAUCUGCACUUCCAGCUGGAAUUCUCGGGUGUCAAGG` the log2 enrichment was -2.53.
`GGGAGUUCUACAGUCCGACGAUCCCUCAAGUCCUGUGCUACACAUCGUAUGUACCGAAUCGGGCGGGCGGGGCGGAAAGUAUUAUGUUACGCCGUUCGGAUCUGCACUUCCAGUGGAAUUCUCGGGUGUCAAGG` gave a log2 enrichment of -0.333.
The log2 enrichment of `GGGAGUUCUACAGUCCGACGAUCCCUGUGCUACACAUCGUAUGUACCGAAUCGGGUUUUUUGGGGUUUUUUGGUUUUUUGGGGAAAGUAUUAUGUUACGCCGUUCGGAUCUGCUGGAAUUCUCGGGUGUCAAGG` is reported as -1.02.
The log2 enrichment of `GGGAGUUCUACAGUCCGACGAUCAAGUCCUGUGCUACACAUCGUAUGUACCGAAUCGGGUGGGAAAGGGAAAAAAAGGGAAAGUAUUAUGUUACGCCGUUCGGAUCUGCACUUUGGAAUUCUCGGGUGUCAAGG` is reported as -0.124.
`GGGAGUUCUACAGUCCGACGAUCUGUGCUACACAUCGUAUGUACCGAAUCGGGGAAAAAAAGGGGUUUUUUUGGGGUUUUUGGGGAAAGUAUUAUGUUACGCCGUUCGGAUCUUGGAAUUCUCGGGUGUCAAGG` has a log2 enrichment of -2.36.
With `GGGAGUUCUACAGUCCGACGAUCCCUGUGCUACACAUCGUAUGUACCGAAUCGGGUUUUUUUGGGUUUUUGGGAAAAAAAGGGAAAGUAUUAUGUUACGCCGUUCGGAUCUGCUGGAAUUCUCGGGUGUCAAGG` the log2 enrichment was -1.9.
`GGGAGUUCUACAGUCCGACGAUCAAGUCCUGUGCUACACAUCGUAUGUACCGAAUCAAAUUUUUAAACCCAAAUUUAAAAAAGUAUUAUGUUACGCCGUUCGGAUCUGCACUUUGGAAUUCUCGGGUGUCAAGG` gave a log2 enrichment of -2.96.
`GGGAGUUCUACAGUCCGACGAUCAGUCCUGUGCUACACAUCGUAUGUACCGAAUCGGGGAAAGGGGAAAGGGGAAAGGGGAAAGUAUUAUGUUACGCCGUUCGGAUCUGCACUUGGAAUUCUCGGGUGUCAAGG` gave a log2 enrichment of 0.253.
For `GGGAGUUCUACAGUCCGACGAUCAGUCCUGUGCUACACAUCGUAUGUACCGAAUCGGAAAAAGGAAAAAGGUUUUUUUGGAAAGUAUUAUGUUACGCCGUUCGGAUCUGCACUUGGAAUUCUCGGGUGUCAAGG`, the log2 enrichment was -2.97.
`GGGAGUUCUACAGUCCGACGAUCCUCAAGUCCUGUGCUACACAUCGUAUGUACCGAAUCGGUGGUUUUUUUGGAGGAAAGUAUUAUGUUACGCCGUUCGGAUCUGCACUUCCAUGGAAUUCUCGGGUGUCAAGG` gave a log2 enrichment of 0.99.
The log2 enrichment of `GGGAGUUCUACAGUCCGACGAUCCCUCAAGUCCUGUGCUACACAUCGUAUGUACCGAAUCGGGCCGGCCGGCCGGGAAAGUAUUAUGUUACGCCGUUCGGAUCUGCACUUCCAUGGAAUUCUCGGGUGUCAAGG` is reported as 0.755.

Set 2 — method: DHFR PCA, deep sequencing; matrix: yeast; together with: (+)-ABA 200 µM; baseline: wild-type fitted maximum; direction: higher = stronger binding
Target: ABI1, truncated, D143A, DHFR fusion (Arabidopsis thaliana)
Notes: methotrexate growth selection, single substitutions
Starting sequence: PYL1, truncated, DHFR fusion (Arabidopsis thaliana); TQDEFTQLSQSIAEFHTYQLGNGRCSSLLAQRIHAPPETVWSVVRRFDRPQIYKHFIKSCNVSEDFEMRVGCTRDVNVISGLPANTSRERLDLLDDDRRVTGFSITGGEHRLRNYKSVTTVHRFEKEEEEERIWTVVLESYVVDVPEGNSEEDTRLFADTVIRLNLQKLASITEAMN; partner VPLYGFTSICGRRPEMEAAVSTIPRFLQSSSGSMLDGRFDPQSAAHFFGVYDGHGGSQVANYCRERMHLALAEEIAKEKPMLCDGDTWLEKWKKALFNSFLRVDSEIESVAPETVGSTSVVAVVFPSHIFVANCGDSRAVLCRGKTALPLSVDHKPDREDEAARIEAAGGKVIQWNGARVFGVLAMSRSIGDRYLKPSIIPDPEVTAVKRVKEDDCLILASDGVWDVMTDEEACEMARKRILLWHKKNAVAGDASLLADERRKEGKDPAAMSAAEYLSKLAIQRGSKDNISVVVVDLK
`Q7L`: “relative binding score” 98.2%.
`R111W`: “relative binding score” 28.6%.
`N177A` — result for “relative binding score”: 120%.
`V121H`: “relative binding score” 9.23%.
`T160L` — result for “relative binding score”: 94.5%.
Under “relative binding score”, `I133K` is recorded as 109%.
Under “relative binding score”, `L82E` is recorded as 5.48%.
For `H55Y`, “relative binding score” read 99.2%.
For `T106R`, “relative binding score” read 83.5%.
`F56K`: “relative binding score” -2.49%.
`G108Q`: “relative binding score” 35.3%.
For `V43I`, “relative binding score” read 103%.
Under “relative binding score”, `R46W` is recorded as 58.9%.
For `L166M`, “relative binding score” read 86.4%.
`F56S` — result for “relative binding score”: 10.7%.

Set 3 — method: universal PBM; molecule type: double-stranded DNA, one strand shown; matrix: in vitro; tested at: 600 nM; direction: higher = stronger binding
Target: Sal-like protein 4, full length isoform A (SALL4, Homo sapiens, UniProt Q9UJQ4, residues 1-1053)
UniProt Q9UJQ4, sequence (whole entry, looked up): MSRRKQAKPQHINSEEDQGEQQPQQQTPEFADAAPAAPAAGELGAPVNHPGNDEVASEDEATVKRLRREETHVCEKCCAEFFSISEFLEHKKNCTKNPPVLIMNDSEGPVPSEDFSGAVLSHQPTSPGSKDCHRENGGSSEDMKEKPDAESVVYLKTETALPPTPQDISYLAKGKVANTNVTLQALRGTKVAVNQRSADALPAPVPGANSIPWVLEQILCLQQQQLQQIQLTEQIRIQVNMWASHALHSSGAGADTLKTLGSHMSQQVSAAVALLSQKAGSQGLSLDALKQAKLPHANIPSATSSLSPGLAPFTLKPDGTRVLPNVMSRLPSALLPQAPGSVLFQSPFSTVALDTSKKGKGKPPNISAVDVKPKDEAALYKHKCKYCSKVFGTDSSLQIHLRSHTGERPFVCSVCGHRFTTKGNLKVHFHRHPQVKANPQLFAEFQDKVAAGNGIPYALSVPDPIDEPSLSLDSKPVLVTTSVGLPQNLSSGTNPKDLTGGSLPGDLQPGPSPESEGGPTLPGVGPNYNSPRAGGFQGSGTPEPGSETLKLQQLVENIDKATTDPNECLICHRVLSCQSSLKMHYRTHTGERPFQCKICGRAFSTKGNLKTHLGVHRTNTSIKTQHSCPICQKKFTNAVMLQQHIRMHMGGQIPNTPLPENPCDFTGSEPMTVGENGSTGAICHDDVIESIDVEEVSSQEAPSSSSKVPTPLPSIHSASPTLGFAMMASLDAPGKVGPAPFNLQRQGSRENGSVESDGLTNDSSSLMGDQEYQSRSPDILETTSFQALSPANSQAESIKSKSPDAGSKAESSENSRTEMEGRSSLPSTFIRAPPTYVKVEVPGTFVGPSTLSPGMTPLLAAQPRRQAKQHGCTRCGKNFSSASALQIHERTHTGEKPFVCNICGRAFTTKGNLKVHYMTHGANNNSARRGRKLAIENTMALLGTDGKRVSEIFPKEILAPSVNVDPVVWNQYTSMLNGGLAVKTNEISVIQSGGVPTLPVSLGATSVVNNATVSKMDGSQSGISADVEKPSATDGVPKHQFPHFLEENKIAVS
Notes: 8-mer, flanks averaged, mean of replicates
`GACCATGC` has an E-score of -0.12.
The E-score of `CGTGTGAC` is reported as -0.149.
`AAATGTAG` gave an E-score of 0.0783.
With `CCCTTTGA` the E-score was -0.121.
`ACACGATG` has an E-score of -0.00396.
`CTGGTAAA` gave an E-score of 0.0272.
`ATTTCAAC` has an E-score of 0.243.
The E-score of `AGCCGATC` is reported as -0.025.
`CCCAGGAG` has an E-score of -0.367.
`CTACGTCA` has an E-score of -0.126.
For `AAAACCTT`, the E-score was 0.0702.
`CAGGGTCA` has an E-score of -0.194.
For `AAATCAAT`, the E-score was 0.318.
`AAGCTCTG` has an E-score of -0.152.
For `ATGCGGAC`, the E-score was -0.113.
With `CCCCGACA` the E-score was -0.109.
The E-score of `AAGTGTGA` is reported as 0.0573.
`GGAAGGAA` gave an E-score of -0.00881.
`ATGACCAG` has an E-score of 0.0352.
For `AGAGTTAG`, the E-score was -0.0334.
`AGCGTTGG` has an E-score of -0.171.
For `ATTAGATG`, the E-score was 0.351.
`GCACCCAC` gave an E-score of -0.211.
`GCTTTGCC` gave an E-score of -0.173.
`ATGCGCGA` gave an E-score of -0.144.

Set 4 — method: protein binding microarray; molecule type: double-stranded DNA, one strand shown; matrix: in vitro; tested at: not given; baseline: not given; direction: higher = stronger binding
Target: Histone acetyltransferase KAT6A, both winged helices, GST fusion (KAT6A, Homo sapiens, UniProt Q92794, residues 1-181)
Notes: 8-mer, flanks averaged, mean of 2 arrays, mostly near background
Residues (chain): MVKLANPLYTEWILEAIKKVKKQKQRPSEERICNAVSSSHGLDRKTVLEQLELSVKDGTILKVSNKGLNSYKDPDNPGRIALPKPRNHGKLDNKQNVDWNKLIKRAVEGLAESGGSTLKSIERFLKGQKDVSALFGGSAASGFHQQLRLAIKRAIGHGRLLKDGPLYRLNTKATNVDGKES
With `CGCACCAC` the E-score was 0.0374.
`AAAAGCAC` gave an E-score of -0.156.
`ATTCGCGC` has an E-score of 0.32.
With `GTCTAGGA` the E-score was -0.0281.
`AAAGCGCC` gave an E-score of 0.178.
With `GGGTGGAA` the E-score was -0.173.
`CTTTTCCC` gave an E-score of -0.13.
`CGATATGC` has an E-score of 0.146.
The E-score of `GGGGAATA` is reported as -0.133.
For `TCGATAGA`, the E-score was -0.132.
For `GCGCATAA`, the E-score was 0.228.
For `CCGTGGCA`, the E-score was 0.17.
`AAGGTACA` has an E-score of -0.219.
`TAACCCCA` gave an E-score of -0.167.
`GCACCGCC` has an E-score of 0.156.
`CCCCTGAC` has an E-score of -0.0924.
With `ATGTTACC` the E-score was 0.0204.
With `AGCATGAA` the E-score was -0.186.
With `CCCCGCTA` the E-score was 0.257.
With `AACAGCCA` the E-score was -0.0495.
The E-score of `AACCACTG` is reported as -0.105.
For `ACTGATTA`, the E-score was -0.0258.
`CACCATGA` has an E-score of 0.0133.
`ATCAAAAT` has an E-score of -0.151.
For `CCACTGAA`, the E-score was 0.0148.

Set 5 — target: CCND2, cyclin fold, Cln2 fusion (human); method: yeast growth competition, sequencing; matrix: yeast; notes: weak parent motif; baseline: not given; direction: higher = stronger binding
Starting sequence: FZR1 docking peptide (human); QDYERRLLRQIVI; partner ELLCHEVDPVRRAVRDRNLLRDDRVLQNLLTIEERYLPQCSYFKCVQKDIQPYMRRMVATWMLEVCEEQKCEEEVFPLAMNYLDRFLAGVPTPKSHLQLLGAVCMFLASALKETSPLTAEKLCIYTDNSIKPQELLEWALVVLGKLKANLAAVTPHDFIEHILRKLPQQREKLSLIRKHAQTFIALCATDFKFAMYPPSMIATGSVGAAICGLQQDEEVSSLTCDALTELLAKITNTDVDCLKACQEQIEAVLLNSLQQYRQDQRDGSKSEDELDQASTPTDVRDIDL
Under “normalised enrichment score”, `QDYERRLLRQIVA [I13A]` is recorded as -0.229.
`ADYERRLLRQIVI [Q1A]`: “normalised enrichment score” 0.184.
`QDYERRLARQIVI [L8A]`: “normalised enrichment score” -0.0616.
`QAYERRLLRQIVI [D2A]` — result for “normalised enrichment score”: 0.0534.
`QDYARRLLRQIVI [E4A]`: “normalised enrichment score” 0.133.
`QDYERRLLAQIVI [R9A]` — result for “normalised enrichment score”: -0.11.
For `QDYEKRLFRQIVI [R5K L8F]`, “normalised enrichment score” read -0.2.
